{"data": "Measurements gathered from unrelated publications", "note": "Numbered parts are unrelated; each lists some results of a single study.", "UniProt O00444, sequence (whole entry, looked up)": "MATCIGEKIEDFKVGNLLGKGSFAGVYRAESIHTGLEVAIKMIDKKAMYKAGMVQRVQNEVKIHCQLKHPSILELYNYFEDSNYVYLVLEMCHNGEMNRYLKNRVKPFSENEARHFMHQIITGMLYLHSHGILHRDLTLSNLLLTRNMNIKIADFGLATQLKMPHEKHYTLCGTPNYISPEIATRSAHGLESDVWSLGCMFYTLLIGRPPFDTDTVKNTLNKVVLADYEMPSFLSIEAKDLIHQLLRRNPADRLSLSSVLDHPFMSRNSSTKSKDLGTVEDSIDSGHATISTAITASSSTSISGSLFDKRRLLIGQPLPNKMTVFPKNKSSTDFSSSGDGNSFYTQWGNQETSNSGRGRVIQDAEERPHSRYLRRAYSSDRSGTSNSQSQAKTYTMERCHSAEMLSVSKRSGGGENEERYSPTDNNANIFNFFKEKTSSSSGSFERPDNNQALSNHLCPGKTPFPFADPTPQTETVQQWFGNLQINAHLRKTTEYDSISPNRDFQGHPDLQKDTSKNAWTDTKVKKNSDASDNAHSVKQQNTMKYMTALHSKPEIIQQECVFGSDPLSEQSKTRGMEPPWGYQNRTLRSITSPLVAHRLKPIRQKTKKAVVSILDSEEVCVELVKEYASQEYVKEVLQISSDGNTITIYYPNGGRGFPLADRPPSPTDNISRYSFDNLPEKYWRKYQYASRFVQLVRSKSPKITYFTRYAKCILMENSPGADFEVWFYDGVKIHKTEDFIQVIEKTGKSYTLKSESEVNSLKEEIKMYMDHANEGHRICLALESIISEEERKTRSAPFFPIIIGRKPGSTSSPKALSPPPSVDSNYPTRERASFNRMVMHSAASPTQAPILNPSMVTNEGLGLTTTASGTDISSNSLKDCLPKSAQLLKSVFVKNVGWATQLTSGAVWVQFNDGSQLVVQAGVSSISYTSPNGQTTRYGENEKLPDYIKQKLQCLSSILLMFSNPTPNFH", "UniProt P41743, sequence (whole entry, looked up)": "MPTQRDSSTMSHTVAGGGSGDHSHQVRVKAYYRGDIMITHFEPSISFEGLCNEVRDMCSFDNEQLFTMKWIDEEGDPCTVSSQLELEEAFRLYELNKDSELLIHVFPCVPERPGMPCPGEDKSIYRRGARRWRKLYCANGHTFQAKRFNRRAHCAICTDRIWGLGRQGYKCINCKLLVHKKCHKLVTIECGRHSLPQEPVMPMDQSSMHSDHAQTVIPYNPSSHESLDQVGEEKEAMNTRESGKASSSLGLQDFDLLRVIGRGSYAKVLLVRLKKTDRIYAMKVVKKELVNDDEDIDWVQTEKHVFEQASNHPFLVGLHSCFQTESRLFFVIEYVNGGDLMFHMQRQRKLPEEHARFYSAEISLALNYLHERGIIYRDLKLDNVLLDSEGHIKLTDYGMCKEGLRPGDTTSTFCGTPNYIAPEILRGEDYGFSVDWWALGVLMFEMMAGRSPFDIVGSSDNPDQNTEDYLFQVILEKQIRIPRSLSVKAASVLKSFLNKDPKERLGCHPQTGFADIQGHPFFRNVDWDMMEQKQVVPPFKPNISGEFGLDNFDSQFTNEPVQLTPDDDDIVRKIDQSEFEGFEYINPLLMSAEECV", "UniProt Q9NRM7, sequence (whole entry, looked up)": "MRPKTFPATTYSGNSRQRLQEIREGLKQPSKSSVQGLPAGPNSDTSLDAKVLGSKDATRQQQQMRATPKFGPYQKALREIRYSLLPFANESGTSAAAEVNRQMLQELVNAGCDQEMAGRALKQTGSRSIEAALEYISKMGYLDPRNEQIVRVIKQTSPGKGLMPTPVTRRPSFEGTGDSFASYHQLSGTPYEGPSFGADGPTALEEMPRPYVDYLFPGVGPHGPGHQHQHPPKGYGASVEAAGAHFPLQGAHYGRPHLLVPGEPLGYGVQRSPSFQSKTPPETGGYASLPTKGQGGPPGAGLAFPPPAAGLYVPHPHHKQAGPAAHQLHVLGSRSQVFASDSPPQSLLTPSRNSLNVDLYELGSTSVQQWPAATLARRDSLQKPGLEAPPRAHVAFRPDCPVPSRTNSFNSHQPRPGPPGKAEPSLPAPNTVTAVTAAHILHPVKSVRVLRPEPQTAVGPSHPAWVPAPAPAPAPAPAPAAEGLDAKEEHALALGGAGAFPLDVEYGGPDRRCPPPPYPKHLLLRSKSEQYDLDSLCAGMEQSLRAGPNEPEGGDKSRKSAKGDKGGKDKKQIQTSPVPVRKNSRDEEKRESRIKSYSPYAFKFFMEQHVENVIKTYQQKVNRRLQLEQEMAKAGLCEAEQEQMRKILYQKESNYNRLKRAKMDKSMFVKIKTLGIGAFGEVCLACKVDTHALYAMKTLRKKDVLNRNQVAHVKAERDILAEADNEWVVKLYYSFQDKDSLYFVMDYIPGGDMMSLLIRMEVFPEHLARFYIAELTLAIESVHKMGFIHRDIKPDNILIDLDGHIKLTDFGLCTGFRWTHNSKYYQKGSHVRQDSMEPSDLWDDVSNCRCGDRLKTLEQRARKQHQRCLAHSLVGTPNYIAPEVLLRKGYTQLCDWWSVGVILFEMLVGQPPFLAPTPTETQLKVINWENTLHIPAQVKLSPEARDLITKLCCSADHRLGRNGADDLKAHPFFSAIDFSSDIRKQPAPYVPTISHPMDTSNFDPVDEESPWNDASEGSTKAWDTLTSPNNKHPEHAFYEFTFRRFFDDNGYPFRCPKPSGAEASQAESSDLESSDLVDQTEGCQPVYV", "UniProt Q13470, sequence (whole entry, looked up)": "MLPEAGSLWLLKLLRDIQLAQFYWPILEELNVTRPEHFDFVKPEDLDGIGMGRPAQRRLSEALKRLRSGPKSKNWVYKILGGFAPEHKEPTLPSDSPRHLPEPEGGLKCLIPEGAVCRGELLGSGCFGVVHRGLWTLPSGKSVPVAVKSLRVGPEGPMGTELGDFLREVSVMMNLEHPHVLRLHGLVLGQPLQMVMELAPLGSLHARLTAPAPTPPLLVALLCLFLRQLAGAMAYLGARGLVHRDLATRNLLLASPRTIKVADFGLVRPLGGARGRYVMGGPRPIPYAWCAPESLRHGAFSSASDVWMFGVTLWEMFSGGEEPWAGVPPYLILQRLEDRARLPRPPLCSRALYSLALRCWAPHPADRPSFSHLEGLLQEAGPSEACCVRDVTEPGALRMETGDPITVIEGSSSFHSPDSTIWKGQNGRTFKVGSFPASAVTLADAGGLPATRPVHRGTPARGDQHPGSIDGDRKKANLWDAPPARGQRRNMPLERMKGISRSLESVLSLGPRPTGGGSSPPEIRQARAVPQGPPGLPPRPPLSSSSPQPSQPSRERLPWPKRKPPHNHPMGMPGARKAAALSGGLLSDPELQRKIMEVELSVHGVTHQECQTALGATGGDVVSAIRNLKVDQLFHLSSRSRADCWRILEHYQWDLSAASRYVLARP", "UniProt Q8WU08, sequence (whole entry, looked up)": "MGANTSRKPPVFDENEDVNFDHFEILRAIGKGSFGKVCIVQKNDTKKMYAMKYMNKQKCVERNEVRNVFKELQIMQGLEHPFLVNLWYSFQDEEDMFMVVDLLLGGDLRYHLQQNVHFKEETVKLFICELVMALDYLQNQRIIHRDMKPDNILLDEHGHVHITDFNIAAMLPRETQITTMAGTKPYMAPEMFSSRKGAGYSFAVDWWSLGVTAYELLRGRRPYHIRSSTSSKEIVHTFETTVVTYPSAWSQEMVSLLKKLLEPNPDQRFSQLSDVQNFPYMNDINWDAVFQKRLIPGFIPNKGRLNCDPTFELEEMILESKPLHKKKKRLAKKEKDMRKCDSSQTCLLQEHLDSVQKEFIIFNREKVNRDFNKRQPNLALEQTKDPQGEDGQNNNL"}
{"data": "Block 1", "cell line": "mouse MPNST tumor cells", "method": "high-content nuclear imaging", "measured": "cell number", "tested at": "10 µM", "time": "12 h", "notes": "mean of 2 replicates", "relative to": "plate mean", "reading": "higher = more cells"}
{"Structure (SMILES)": "CN(C)CCn1cc(S(=O)(=O)c2cccc(F)c2)c2cccnc21", "nuclei count [z-score]": 1.85}
{"Structure (SMILES)": "NNC(=O)CSc1nc2scc(-c3ccccc3)c2c(=O)n1-c1ccccc1", "nuclei count [z-score]": 0.856}
{"Structure (SMILES)": "OCCC#Cc1nc(-c2ccc(F)cc2)c(-c2ccncc2)n1CCCc1ccccc1", "nuclei count [z-score]": 1.7}
{"Structure (SMILES)": "NC1CCN(c2nc3c(cc2F)c(=O)c(C(=O)O)cn3-c2ccc(F)cc2F)C1 (stereo not drawn)", "nuclei count [z-score]": -0.279}
{"Structure (SMILES)": "NNC(=O)c1sc2cccc(Cl)c2c1Cl", "nuclei count [z-score]": -0.714}
{"Structure (SMILES)": "Cc1ccc(C)c(Oc2ccncc2C(=O)N2CCN(C3CC3)c3ccccc32)c1", "nuclei count [z-score]": 0.542}
{"Structure (SMILES)": "CN(C)CCOC(=O)C(c1ccccc1)C1(O)CCCC1 (stereo not drawn)", "nuclei count [z-score]": -0.244}
{"Structure (SMILES)": "CC1Cc2ccccc2N1NC(=O)c1ccc(Cl)c(S(N)(=O)=O)c1 (stereo not drawn)", "nuclei count [z-score]": -0.561}
{"Structure (SMILES)": "CC(NCCC(c1ccccc1)c1ccccc1)c1ccccc1 (stereo not drawn)", "nuclei count [z-score]": -5.22}
{"Structure (SMILES)": "Cc1cc2sc(NC(=O)Cc3ccccc3)nc2cc1Cl", "nuclei count [z-score]": 3.04}
{"Structure (SMILES)": "CC[C@H]1OC(=O)[C@H](C)[C@@H](O[C@H]2C[C@@](C)(OC)[C@@H](O)[C@H](C)O2)[C@H](C)[C@@H](O[C@@H]2O[C@H](C)C[C@H](N(C)C)[C@H]2O)[C@](C)(O)C[C@@H](C)C(=O)[C@H](C)[C@@H](O)[C@]1(C)O", "nuclei count [z-score]": 1.35}
{"data": "Block 2", "target": "Insulin receptor (INSR, Homo sapiens, UniProt P06213)", "read-out": "enzyme activity", "action": "inhibitor", "tested at": "0.5 µM", "relative to": "control", "UniProt P06213, sequence (whole entry, looked up)": "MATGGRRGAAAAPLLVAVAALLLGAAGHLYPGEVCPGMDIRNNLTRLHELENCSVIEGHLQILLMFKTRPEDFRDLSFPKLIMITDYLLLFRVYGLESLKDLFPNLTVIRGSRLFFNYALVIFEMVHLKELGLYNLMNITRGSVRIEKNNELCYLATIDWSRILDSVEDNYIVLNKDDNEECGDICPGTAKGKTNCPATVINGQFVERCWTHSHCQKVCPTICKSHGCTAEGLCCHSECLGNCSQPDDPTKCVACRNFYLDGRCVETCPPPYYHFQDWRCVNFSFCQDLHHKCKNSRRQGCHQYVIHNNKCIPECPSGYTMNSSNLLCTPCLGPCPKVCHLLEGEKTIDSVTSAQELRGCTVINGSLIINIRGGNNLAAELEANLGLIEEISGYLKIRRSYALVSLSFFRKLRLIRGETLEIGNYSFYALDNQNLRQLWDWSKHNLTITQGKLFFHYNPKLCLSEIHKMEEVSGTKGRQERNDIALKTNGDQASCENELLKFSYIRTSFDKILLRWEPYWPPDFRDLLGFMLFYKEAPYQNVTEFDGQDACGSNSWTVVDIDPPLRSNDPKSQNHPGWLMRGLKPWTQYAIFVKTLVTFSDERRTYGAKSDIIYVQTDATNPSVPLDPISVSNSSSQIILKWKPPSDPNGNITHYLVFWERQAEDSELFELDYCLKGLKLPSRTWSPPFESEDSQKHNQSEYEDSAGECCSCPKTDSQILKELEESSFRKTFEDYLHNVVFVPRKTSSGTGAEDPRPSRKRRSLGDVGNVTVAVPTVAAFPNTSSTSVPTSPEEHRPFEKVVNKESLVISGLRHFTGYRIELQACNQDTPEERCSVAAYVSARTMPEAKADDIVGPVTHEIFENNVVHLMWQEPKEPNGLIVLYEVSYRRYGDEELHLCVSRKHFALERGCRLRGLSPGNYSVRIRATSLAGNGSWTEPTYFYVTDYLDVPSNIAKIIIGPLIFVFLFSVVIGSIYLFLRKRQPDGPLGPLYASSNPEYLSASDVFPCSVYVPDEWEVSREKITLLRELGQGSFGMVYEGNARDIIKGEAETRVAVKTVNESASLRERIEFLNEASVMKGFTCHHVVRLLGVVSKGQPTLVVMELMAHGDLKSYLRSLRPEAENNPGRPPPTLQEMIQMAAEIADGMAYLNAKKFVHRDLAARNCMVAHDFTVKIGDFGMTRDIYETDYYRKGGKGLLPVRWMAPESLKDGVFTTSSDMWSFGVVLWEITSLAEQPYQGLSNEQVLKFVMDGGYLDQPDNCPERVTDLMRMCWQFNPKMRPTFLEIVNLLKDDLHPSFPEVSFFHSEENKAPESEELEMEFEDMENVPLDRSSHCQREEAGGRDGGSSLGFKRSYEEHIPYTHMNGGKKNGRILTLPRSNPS"}
{"Structure (SMILES)": "COc1ccc(OC)c2c(=S)c3ccccc3[nH]c12", "remaining activity": "102%"}
{"Structure (SMILES)": "Cn1sc(=O)n(Cc2ccccc2)c1=O", "remaining activity": "93.7%"}
{"Structure (SMILES)": "CCOC(=O)c1c(C)[nH]c(/C=C2\\C(=O)Nc3ccccc32)c1C", "remaining activity": "90.6%"}
{"Structure (SMILES)": "CC(C)[C@H](CO)Nc1nc(Nc2cc(N)cc(Cl)c2)c2ncn(C(C)C)c2n1", "remaining activity": "85%"}
{"Structure (SMILES)": "O=C1NC(=O)C(c2cn(CCCO)c3ncccc23)=C1c1cnccn1", "remaining activity": "92.9%"}
{"Structure (SMILES)": "CO[C@H]1C[C@@H]2CC[C@@H](C)[C@@](O)(O2)C(=O)C(=O)N2CCCC[C@H]2C(=O)O[C@H]([C@H](C)C[C@@H]2CC[C@@H](O)[C@H](OC)C2)CC(=O)[C@H](C)/C=C(\\C)[C@@H](O)[C@@H](OC)C(=O)[C@H](C)C[C@H](C)/C=C/C=C/C=C/1C", "remaining activity": "90.3%"}
{"Structure (SMILES)": "N#CC(C#N)=C(N)/C(C#N)=C/c1ccc(O)cc1", "remaining activity": "94.2%"}
{"Structure (SMILES)": "Nc1[nH]nc2nc3ccccc3nc12", "remaining activity": "95.3%"}
{"Structure (SMILES)": "COc1ccc(C(=O)Nc2sc3c(c2C(N)=O)CCCC3)cc1OC", "remaining activity": "93.2%"}
{"Structure (SMILES)": "O=c1c2ccccc2[nH]c(=S)n1CCN1CCC(=C(c2ccc(F)cc2)c2ccc(F)cc2)CC1", "remaining activity": "94.3%"}
{"Structure (SMILES)": "Oc1ccc(-c2nc(-c3ccncc3)c(-c3ccc(F)cc3)[nH]2)cc1", "remaining activity": "91.5%"}
{"Structure (SMILES)": "Nc1ncnc2n[nH]c(Nc3ccc(F)cc3)c12", "remaining activity": "98.5%"}
{"Structure (SMILES)": "COc1cc2nccc(Oc3ccc(NC(=S)NC(=O)c4ccccc4C)cc3)c2cc1OC", "remaining activity": "100%"}
{"Structure (SMILES)": "COc1cc2ncnc(Nc3ccc(Oc4ccccc4)cc3)c2cc1OC", "remaining activity": "88.8%"}
{"Structure (SMILES)": "CNC(=O)c1cc(Oc2ccc(NC(=O)Nc3ccc(Cl)c(C(F)(F)F)c3)cc2)ccn1", "remaining activity": "106%"}
{"data": "Block 3", "Compound": "CC#CC(=O)N1CCC[C@H]1c1nc(-c2ccc(C(=O)Nc3ccccn3)cc2)c2c(N)nccn12", "read-out": "enzyme activity", "action": "inhibitor", "tested at": "1 µM"}
{"target": "STK17B (Homo sapiens, UniProt O94768)", "inhibition [%]": 0}
{"target": "PRKD3 (Homo sapiens, UniProt O94806)", "inhibition [%]": 17}
{"target": "DSTYK (Homo sapiens, UniProt Q6XUX3)", "inhibition [%]": 0}
{"target": "TNK1 (Homo sapiens, UniProt Q13470)", "inhibition [%]": 12}
{"target": "MAP2K3 (Homo sapiens, UniProt P46734)", "inhibition [%]": 4}
{"target": "MAP3K19 (Homo sapiens, UniProt Q56UN5)", "inhibition [%]": 10}
{"target": "PDGFRA (Homo sapiens, UniProt P16234)", "inhibition [%]": 1}
{"target": "RIPK2 (Homo sapiens, UniProt O43353)", "inhibition [%]": 56}
{"target": "STK32A (Homo sapiens, UniProt Q8WU08)", "inhibition [%]": 0}
{"target": "GAK (Homo sapiens, UniProt O14976)", "inhibition [%]": 0}
{"target": "MYLK (Homo sapiens, UniProt Q15746)", "inhibition [%]": 10}
{"target": "DCLK3 (Homo sapiens, UniProt Q9C098)", "inhibition [%]": 4}
{"target": "MAP2K5 (Homo sapiens, UniProt Q13163)", "inhibition [%]": 74}
{"target": "PRKCD (Homo sapiens, UniProt Q05655)", "inhibition [%]": 14}
{"data": "Block 4", "SMILES": "Cc1noc([C@H]2C[C@@H](c3ccc(C(F)(F)F)cc3)CN(C(=O)N3CCS(=O)(=O)C3)C2)n1", "read-out": "cell-free assay", "method": "competition with immobilised ligand", "tested at": "1 µM"}
{"target": "LATS2 (Homo sapiens, UniProt Q9NRM7)", "remaining binding": "100%"}
{"target": "Tyrosine-protein kinase ABL1, non-phosphorylated (ABL1, Homo sapiens, UniProt P00519)", "remaining binding": "71%"}
{"target": "PRKCI (Homo sapiens, UniProt P41743)", "remaining binding": "100%"}
{"target": "MAPK8 (Homo sapiens, UniProt P45983)", "remaining binding": "77%"}
{"target": "PRKAA1 (Homo sapiens, UniProt Q13131)", "remaining binding": "100%"}
{"target": "Tyrosine-protein kinase ABL1, phosphorylated (ABL1, Homo sapiens, UniProt P00519, Q252H)", "remaining binding": "100%"}
{"target": "GRK1 (Homo sapiens, UniProt Q15835)", "remaining binding": "82%"}
{"target": "CSNK1G3 (Homo sapiens, UniProt Q9Y6M4)", "remaining binding": "100%"}
{"target": "SRMS (Homo sapiens, UniProt Q9H3Y6)", "remaining binding": "89%"}
{"target": "EIF2AK1 (Homo sapiens, UniProt Q9BQI3)", "remaining binding": "100%"}
{"target": "PLK4 (Homo sapiens, UniProt O00444)", "remaining binding": "88%"}
{"target": "MAP2K7 (Homo sapiens, UniProt O14733)", "remaining binding": "100%"}
{"target": "PIKFYVE (Homo sapiens, UniProt Q9Y2I7)", "remaining binding": "100%"}
{"target": "CIT (Homo sapiens, UniProt O14578)", "remaining binding": "98%"}
